# Experimental data collected from several papers.
# Numbered parts are unrelated; each lists some results of a single study.
# UniProt P23443, sequence (whole entry, looked up): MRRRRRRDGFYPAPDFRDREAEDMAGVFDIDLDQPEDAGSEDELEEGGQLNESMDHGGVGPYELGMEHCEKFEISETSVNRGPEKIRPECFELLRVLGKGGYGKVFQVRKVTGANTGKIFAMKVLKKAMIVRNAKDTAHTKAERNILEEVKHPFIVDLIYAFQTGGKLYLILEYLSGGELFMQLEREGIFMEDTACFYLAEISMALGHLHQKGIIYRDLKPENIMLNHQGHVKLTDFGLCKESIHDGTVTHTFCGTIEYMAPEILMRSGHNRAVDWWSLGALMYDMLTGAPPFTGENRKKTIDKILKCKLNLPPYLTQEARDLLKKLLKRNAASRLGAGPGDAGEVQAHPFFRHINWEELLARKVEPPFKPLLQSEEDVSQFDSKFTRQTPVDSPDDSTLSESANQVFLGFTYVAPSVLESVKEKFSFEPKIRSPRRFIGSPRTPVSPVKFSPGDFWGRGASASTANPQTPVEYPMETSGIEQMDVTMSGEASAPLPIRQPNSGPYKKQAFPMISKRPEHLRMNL
# UniProt P07332, sequence (whole entry, looked up): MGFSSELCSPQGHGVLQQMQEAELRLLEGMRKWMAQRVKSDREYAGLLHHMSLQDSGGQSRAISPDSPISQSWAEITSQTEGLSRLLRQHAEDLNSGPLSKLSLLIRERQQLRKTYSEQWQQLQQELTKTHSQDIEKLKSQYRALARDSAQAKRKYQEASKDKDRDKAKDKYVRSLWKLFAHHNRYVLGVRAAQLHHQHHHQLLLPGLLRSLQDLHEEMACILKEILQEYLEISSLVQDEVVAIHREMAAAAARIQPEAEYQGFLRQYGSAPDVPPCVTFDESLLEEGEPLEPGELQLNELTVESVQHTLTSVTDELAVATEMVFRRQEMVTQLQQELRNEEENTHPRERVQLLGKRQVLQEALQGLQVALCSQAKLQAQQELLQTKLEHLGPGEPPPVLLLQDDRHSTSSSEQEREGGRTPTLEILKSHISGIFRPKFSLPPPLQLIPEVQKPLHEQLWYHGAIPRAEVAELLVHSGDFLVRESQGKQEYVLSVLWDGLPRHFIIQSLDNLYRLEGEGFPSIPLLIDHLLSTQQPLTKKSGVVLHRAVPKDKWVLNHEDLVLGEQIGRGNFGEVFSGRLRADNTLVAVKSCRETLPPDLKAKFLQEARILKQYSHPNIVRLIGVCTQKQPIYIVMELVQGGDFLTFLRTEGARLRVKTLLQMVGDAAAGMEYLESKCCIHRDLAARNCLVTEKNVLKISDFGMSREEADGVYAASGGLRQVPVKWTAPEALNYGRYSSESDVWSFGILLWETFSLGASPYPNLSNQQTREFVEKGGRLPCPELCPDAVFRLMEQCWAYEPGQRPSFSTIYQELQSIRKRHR
# UniProt Q16539, sequence (whole entry, looked up): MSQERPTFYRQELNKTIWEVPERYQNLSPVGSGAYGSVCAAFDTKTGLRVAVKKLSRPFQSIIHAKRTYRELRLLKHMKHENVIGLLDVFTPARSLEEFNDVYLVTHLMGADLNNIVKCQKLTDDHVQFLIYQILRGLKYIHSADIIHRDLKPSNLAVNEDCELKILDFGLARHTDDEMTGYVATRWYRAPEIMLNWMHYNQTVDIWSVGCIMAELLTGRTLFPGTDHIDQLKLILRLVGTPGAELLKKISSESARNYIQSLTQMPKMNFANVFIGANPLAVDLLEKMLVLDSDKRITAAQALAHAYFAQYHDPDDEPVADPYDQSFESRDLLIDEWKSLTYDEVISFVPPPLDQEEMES
# UniProt P49137, sequence (whole entry, looked up): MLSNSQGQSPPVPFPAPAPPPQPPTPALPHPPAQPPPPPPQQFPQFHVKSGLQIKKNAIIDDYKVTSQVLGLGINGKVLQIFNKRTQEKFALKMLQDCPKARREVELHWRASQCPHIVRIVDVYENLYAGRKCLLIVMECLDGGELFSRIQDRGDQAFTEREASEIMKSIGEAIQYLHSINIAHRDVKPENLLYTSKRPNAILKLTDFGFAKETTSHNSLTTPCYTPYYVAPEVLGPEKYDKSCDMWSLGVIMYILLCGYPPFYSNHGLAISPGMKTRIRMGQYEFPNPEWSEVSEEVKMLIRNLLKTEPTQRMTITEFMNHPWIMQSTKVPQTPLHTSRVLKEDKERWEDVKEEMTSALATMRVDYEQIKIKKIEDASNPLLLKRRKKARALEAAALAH
# UniProt P31645, sequence (whole entry, looked up): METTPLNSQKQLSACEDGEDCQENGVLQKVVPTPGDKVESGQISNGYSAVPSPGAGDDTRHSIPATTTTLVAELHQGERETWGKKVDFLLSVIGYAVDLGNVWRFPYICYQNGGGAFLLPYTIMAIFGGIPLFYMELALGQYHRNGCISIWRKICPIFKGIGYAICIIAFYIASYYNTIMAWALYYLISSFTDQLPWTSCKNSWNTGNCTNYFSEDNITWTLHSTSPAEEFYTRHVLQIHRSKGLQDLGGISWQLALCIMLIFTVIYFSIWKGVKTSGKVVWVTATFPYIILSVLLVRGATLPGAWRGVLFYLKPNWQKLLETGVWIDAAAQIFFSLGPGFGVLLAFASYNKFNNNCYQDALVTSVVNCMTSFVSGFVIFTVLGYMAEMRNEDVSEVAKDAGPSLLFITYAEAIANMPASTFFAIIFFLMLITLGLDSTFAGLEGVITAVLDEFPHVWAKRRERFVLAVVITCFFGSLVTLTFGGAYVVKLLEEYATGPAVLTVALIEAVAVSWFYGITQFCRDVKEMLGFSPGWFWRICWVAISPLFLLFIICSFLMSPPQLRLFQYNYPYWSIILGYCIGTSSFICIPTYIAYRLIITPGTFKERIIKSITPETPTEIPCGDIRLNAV
# UniProt P11309, sequence (whole entry, looked up): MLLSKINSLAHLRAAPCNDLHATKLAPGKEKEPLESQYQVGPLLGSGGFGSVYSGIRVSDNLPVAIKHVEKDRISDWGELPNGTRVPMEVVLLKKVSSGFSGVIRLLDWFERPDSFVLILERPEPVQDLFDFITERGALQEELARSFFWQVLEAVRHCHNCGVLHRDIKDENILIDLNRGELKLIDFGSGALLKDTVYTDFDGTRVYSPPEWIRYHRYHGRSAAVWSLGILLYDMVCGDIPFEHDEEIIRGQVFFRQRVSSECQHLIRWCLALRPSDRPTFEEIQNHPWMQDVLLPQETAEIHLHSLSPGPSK
# UniProt O60674, sequence (whole entry, looked up): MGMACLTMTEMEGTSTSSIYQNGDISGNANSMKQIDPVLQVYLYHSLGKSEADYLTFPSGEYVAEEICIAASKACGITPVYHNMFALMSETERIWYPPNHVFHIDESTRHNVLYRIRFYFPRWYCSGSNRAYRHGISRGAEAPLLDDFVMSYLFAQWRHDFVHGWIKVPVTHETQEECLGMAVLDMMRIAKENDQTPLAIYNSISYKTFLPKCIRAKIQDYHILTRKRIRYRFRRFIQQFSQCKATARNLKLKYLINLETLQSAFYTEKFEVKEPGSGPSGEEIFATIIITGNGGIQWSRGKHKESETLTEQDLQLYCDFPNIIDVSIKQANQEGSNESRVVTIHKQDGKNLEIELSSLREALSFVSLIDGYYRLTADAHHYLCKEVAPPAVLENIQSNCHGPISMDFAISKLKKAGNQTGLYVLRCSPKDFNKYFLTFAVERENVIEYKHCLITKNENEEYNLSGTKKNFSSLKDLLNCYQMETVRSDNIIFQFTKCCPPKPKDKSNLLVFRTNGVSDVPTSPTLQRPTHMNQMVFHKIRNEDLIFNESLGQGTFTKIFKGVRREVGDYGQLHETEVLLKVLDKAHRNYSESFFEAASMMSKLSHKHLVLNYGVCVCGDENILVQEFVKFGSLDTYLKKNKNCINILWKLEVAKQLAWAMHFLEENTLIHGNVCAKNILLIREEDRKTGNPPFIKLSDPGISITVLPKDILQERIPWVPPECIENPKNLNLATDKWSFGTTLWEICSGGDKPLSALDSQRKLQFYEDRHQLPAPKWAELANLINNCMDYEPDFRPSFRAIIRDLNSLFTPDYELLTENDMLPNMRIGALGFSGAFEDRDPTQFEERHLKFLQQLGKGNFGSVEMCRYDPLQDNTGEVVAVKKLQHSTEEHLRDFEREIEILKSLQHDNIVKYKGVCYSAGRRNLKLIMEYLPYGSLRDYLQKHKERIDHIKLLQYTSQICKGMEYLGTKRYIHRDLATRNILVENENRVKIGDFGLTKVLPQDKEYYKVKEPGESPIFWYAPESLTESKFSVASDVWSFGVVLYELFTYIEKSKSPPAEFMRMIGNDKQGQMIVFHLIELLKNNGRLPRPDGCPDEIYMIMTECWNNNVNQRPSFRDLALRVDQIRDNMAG
# UniProt P08913, sequence (whole entry, looked up): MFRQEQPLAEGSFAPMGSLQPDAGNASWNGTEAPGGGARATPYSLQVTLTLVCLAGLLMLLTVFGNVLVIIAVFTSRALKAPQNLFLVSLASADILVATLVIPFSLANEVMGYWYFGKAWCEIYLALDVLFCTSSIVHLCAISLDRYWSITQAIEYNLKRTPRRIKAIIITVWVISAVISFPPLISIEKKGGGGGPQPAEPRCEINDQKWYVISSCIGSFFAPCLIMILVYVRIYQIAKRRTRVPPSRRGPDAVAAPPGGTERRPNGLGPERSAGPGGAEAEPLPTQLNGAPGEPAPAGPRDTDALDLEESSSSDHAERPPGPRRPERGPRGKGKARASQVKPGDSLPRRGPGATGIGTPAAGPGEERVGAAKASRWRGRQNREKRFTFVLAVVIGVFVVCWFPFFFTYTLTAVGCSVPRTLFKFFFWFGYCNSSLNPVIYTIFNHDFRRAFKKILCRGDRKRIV

# Sample 1 — host: mouse; medium: microsomes or S9; tested at: 2 µM; time: 0.5 h
SMILES,remaining compound [%]
CC(C)(CO)CCCNC(=O)N1CCC2(CC1)OCCO2,75.7
Cc1ccc(C2NCc3ccccc3-n3cccc32)c(C)c1 (stereo not drawn),8.28
COc1cc(=O)n(-c2ccc(C#N)c(Cl)c2C)nc1C,0

# Sample 2 — cell line: mouse MPNST tumor cells; method: high-content immunofluorescence imaging; measured: nuclear SOX9; tested at: 10 µM; time: 12 h; notes: mean of 2 replicates; relative to: DMSO control; reading: higher = more nuclear SOX9
SMILES,nuclear SOX9 intensity
CC(=O)OCC1=C(C(=O)O)N2C(=O)C(N)C2SC1 (stereo not drawn),99.3 % of DMSO
CC[N+]1(C)CCCC(OC(=O)C(O)(c2ccccc2)c2ccccc2)C1 (stereo not drawn),101 % of DMSO
CN(C)[C@@H]1C(=O)C(C(N)=O)=C(O)[C@@]2(O)C(=O)C3=C(O)c4c(O)cccc4[C@@](C)(O)[C@H]3C[C@@H]12,96.6 % of DMSO
C[C@]12CC[C@H](O)C[C@H]1CC[C@@H]1[C@@H]2CC[C@]2(C)[C@@](O)(c3ccoc3)CC[C@]12O,93.1 % of DMSO

# Sample 3
# SMILES: COC(=O)c1cc(N(C)C(=O)c2ccn3ncc(-c4ccc(C(=O)O)cc4)c3c2)ccc1Cl
target,observed,action,IC50 [µM]
"RAC-alpha serine/threonine-protein kinase (AKT1, Homo sapiens, UniProt P31749)",enzyme activity,inhibitor,> 30
"Tyrosine-protein kinase ZAP-70 (ZAP70, Homo sapiens, UniProt P43403)",enzyme activity,inhibitor,> 30
"Ribosomal protein S6 kinase beta-1 (RPS6KB1, Homo sapiens, UniProt P23443)",enzyme activity,inhibitor,> 30
"Tyrosine-protein kinase SYK (SYK, Homo sapiens, UniProt P43405)",enzyme activity,inhibitor,> 30
"Tyrosine-protein kinase JAK1 (JAK1, Homo sapiens, UniProt P23458)",enzyme activity,inhibitor,> 30
"Sodium-dependent noradrenaline transporter (SLC6A2, Homo sapiens, UniProt P23975)",cell-free assay,,> 30
"Alpha-2A adrenergic receptor (ADRA2A, Homo sapiens, UniProt P08913)",cell-free assay,,> 30
"Mitogen-activated protein kinase 14 (MAPK14, Homo sapiens, UniProt Q16539)",enzyme activity,inhibitor,> 30
"Estrogen receptor (ESR1, Homo sapiens, UniProt P03372)",cell-free assay,,> 30
"Sodium-dependent serotonin transporter (SLC6A4, Homo sapiens, UniProt P31645)",cell-free assay,,> 30
"Cyclin-dependent kinase 2 (CDK2, Homo sapiens, UniProt P24941)",enzyme activity,inhibitor,21.8
"MAP kinase-activated protein kinase 2 (MAPKAPK2, Homo sapiens, UniProt P49137)",enzyme activity,inhibitor,> 30
"Protein kinase C theta type (PRKCQ, Homo sapiens, UniProt Q04759)",enzyme activity,inhibitor,> 30

# Sample 4 — SMILES: COc1ccc2c(c1)/C(=C/c1cnc[nH]1)C(=O)N2; observed: enzyme activity; action: inhibitor; tested at: 0.5 µM; relative to: control
target,remaining activity
"Tyrosine-protein kinase JAK2 (JAK2, Homo sapiens, UniProt O60674)",88.9%
"Serine/threonine-protein kinase PAK 4 (PAK4, Homo sapiens, UniProt O96013)",100%
"Serine/threonine-protein kinase BRSK2 (BRSK2, Homo sapiens, UniProt Q8IWQ3)",61.7%
"Serine/threonine-protein kinase pim-1 (PIM1, Homo sapiens, UniProt P11309)",90.8%
"Tyrosine-protein kinase Fes/Fps (FES, Homo sapiens, UniProt P07332)",97%
"Dual specificity tyrosine-phosphorylation-regulated kinase 1A (DYRK1A, Homo sapiens, UniProt Q13627)",70.4%
"Serine/threonine-protein kinase PAK 5 (PAK5, Homo sapiens, UniProt Q9P286)",96.9%

# For quick reference, copied from above (sample 3):
target,observed,action,IC50 [µM]
"Sodium-dependent noradrenaline transporter (SLC6A2, Homo sapiens, UniProt P23975)",cell-free assay,,> 30
"Alpha-2A adrenergic receptor (ADRA2A, Homo sapiens, UniProt P08913)",cell-free assay,,> 30
